# Measured values pooled from the literature.
# ± marks the error that the study gave.
Structure (SMILES),cell line,test,system,setting,how to read,endpoint,result
COC(=O)C1CN1S(=O)(=O)c1ccc(-c2ccccc2)cc1 (stereo not drawn),Balb/c 3T3 fibroblasts,"cytotoxicity, neutral red uptake",DMEM with 5% FBS,24 h,,IC50,40 ± 5 µM
O=C1c2ccccc2C2(c3ccc(O)cc3Oc3cc(O)ccc32)N1CCS(=O)(=O)O,ARPE-19 monolayer,,,"100 µM, 360 min, apical to basolateral",,Papp,7.72 ± 1.13 ×10⁻⁶ cm/s
CNC(=O)C(NC(=O)C(O)(Cc1ccccc1)CN(Cc1ccc(Br)cc1)NC(=O)C(NC(=O)OC)C(C)(C)C)C(C)(C)C (stereo not drawn),Caco-2,,,"pH 7.4, 1% BSA in receiver",,Papp A-to-B,2.5 ± 0.1 ×10⁻⁶ cm/s
N=C(N)c1ccc(-c2ccc(-c3nc4ccc(C(=N)N)cc4[nH]3)[se]2)cc1,HEK293 cells,"viability, resazurin reduction",,"24 h, 10% fetal bovine serum",up to,maximum non-toxic concentration,> 10 µM
Nc1ncnc2c1c(Br)cn2[C@@H]1O[C@H](CO)C[C@H]1O,MRC-5 SV2,"cytotoxicity, resazurin",medium with 5% FBS,72 h,,EC50,14.9 ± 3.4 µM
CC1(C)CCCC(C)(C2CCC3(C)C2C(O)CC2C4(C)CCC(OC(=O)c5cn(-c6ccccc6)nn5)C(C)(C)C4C(OC(=O)c4cn(-c5ccccc5)nn4)CC23C)O1 (stereo not drawn),Hep3B,"cell growth or viability, MTT",,24 h,,IC50,> 30 µM
COC(=O)C1CN1S(=O)(=O)c1ccc(C2CCCCC2)cc1 (stereo not drawn),Balb/c 3T3 fibroblasts,"cytotoxicity, neutral red uptake",DMEM with 5% FBS,24 h,,IC50,110 ± 1 µM
CC(=O)N[C@H](C(=O)N[C@H](C(=O)N[C@@H](CCCNC(=N)N)C(=O)N1Cc2ccccc2C[C@H]1C(=O)N[C@@H](Cc1ccccc1)C(N)=O)C1CCCCC1)C(C)C,human PBMC,"Bio-Plex multiplex, measured: IP-10",,"500 µg/mL, 24 h",,cytokine level,8310 ± 4560 pg/mL
CCCN(CC(=O)N(CCC)CC(=O)N(CCC)CC(=O)N(CCC)CC(=O)N(CC(=O)N(CCC)CC(=O)N(CCC)CC(=O)N(CCC)CC(=O)N(CCC)CC(=O)N(CC(N)=O)Cc1cn(CCCNC(=O)CCCOc2cccc(-c3nc4ccc(-c5nc6ccc(N7CCN(C)CC7)cc6[nH]5)cc4[nH]3)c2)nn1)Cc1cn(CCCNC(=O)CCCOc2cccc(-c3nc4ccc(-c5nc6ccc(N7CCN(C)CC7)cc6[nH]5)cc4[nH]3)c2)nn1)C(=O)CNCc1cn(CCCNC(=O)CCCOc2cccc(-c3nc4ccc(-c5nc6ccc(N7CCN(C)CC7)cc6[nH]5)cc4[nH]3)c2)nn1,C2C12,flow cytometry,,"5 µM, 14 h",,ligand- and PI-positive cells,5.8%
CC(C)=CCc1c2c(c(O)c3c(=O)c(-c4ccc(O)cc4)coc13)CC(C(C)(C)O)O2 (stereo not drawn),A549,"cell growth or viability, MTT",,50 µg/mL,,viability,5.57%
CC(C)(C)OC(=O)N[C@@H](Cc1c[nH]c2ccccc12)C(=O)OC1CCC2(C)C(C(O)CC3(C)C2CC(O)C2C(C4(C)CCCC(C)(C)O4)CCC23C)C1(C)C (stereo partly drawn),Hep3B,"cell growth or viability, MTT",,24 h,,IC50,> 30 µM
N=C(N)NCCC[C@@H]1NC(=O)[C@H](CCCNC(=N)N)NC(=O)[C@H](CCCNC(=N)N)NC(=O)[C@H](Cc2ccc3ccccc3c2)NC(=O)[C@H](Cc2ccc3ccccc3c2)NC(=O)[C@H](Cc2c[nH]c3ccccc23)NC(=O)[C@H](CCCNC(=N)N)NC1=O,human red blood cells,hemolysis,,,,HC50,150 µg/mL
